Published values collected from several papers.
Lines come from different studies, so protocols differ. ± marks the error that the study gave.
PGR: Progesterone receptor (PGR, Homo sapiens, UniProt P06401)
Chain of UniProt P06401 (whole entry, looked up): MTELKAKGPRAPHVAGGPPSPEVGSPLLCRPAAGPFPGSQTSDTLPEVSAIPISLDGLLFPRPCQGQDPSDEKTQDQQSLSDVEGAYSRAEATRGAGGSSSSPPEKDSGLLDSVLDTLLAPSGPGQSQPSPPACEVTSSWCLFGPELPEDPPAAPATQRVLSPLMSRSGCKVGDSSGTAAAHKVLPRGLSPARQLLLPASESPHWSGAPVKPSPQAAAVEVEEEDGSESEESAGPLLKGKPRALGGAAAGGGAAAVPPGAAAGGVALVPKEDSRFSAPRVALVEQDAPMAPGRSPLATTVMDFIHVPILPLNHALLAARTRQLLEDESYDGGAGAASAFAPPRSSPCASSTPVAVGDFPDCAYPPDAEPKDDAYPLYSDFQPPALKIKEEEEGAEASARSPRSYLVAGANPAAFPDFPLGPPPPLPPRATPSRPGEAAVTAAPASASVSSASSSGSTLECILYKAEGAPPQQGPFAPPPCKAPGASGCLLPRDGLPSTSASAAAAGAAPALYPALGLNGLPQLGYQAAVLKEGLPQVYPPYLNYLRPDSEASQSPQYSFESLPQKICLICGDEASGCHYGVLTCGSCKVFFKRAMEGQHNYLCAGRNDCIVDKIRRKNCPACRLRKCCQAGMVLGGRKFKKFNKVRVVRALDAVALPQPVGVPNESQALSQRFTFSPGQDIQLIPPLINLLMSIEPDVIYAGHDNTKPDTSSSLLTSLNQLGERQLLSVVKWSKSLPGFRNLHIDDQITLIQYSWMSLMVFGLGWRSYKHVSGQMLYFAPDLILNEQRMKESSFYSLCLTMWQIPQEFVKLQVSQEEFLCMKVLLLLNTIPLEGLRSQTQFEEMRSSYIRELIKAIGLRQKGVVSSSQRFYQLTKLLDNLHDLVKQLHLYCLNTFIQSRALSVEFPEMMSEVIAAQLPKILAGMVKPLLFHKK
AMC9: Metacaspase-9 (AMC9, Arabidopsis thaliana, UniProt Q9FYE1)
Chain of UniProt Q9FYE1 (whole entry, looked up): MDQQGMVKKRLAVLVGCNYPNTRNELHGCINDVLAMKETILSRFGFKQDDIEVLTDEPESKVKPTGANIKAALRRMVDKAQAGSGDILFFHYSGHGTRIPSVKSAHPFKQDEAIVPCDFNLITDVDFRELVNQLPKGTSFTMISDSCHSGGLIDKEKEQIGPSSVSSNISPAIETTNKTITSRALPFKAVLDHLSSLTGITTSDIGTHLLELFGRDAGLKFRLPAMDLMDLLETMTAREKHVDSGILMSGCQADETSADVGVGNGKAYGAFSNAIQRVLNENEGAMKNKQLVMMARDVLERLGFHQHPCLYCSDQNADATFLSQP
ilvC: Ketol-acid reductoisomerase (NADP(+)) (ilvC, Mycobacterium tuberculosis, UniProt P9WKJ7)
Chain of UniProt P9WKJ7 (whole entry, looked up): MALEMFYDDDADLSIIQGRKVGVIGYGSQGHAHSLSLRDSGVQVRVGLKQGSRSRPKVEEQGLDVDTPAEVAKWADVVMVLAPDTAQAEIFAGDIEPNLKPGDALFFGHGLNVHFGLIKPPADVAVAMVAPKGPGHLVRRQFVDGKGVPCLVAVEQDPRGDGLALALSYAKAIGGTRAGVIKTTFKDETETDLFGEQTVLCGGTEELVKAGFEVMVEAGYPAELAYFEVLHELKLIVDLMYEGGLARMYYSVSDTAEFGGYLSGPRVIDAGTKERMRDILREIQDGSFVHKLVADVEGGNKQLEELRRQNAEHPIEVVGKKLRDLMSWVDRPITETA
BCHE: Cholinesterase (BCHE, Homo sapiens, UniProt P06276)
Chain of UniProt P06276 (whole entry, looked up): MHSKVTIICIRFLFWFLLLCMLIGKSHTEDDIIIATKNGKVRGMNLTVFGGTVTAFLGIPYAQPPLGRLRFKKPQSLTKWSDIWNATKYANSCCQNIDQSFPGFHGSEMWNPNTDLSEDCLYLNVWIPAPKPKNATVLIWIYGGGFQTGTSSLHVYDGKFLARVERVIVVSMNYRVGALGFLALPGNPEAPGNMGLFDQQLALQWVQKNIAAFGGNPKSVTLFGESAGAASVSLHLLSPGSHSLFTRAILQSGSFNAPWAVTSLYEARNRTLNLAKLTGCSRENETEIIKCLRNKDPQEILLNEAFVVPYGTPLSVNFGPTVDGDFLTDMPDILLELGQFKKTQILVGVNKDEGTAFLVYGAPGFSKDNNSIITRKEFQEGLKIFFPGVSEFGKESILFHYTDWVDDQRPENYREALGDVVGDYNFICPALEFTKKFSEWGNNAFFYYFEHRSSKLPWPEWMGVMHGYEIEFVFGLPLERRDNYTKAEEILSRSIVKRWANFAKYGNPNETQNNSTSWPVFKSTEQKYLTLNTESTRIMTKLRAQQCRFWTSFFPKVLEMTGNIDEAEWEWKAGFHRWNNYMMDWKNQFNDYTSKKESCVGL
Chain of UniProt Q96P56 (whole entry, looked up): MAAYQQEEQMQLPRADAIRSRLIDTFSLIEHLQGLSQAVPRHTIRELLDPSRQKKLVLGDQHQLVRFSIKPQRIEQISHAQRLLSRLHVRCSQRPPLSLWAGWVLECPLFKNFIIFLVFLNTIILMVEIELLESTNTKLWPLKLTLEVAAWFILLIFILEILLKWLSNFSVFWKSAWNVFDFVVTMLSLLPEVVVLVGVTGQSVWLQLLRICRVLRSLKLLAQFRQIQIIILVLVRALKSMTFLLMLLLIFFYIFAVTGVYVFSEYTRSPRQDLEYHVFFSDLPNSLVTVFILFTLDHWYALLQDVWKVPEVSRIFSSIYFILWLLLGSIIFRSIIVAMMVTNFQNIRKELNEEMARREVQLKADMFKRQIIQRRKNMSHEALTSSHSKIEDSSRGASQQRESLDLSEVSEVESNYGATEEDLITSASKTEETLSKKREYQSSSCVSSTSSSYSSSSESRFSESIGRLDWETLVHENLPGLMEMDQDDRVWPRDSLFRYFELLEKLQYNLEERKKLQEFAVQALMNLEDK
Chain of UniProt Q61327 (whole entry, looked up): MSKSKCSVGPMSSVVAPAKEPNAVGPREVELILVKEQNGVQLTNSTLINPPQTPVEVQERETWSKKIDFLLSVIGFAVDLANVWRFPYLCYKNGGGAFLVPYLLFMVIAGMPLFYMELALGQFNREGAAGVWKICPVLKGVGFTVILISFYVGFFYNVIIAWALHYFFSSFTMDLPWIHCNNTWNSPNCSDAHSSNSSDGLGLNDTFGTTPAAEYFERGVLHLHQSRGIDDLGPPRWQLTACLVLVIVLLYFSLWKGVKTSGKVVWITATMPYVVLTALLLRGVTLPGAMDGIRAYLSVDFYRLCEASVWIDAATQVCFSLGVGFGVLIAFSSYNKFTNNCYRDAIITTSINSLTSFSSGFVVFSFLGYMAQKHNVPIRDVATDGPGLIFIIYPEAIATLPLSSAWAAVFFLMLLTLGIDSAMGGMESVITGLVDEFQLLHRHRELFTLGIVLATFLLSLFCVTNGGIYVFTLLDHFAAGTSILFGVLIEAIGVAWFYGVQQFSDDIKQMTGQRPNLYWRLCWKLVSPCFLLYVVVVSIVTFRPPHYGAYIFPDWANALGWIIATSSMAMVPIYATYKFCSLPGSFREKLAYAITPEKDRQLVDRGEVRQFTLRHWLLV
Chain of UniProt Q15759 (whole entry, looked up): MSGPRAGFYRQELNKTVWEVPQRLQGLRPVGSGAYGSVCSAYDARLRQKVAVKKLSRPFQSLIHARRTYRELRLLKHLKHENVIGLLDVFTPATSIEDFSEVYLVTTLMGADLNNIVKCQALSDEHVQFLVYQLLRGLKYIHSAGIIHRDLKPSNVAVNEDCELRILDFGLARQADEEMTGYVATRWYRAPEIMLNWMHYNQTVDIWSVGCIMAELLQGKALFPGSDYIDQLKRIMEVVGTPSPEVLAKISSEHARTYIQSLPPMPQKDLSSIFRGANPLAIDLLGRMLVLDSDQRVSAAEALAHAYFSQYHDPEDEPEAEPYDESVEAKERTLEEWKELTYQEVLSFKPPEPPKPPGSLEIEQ
Chain of UniProt P9WGK3 (whole entry, looked up): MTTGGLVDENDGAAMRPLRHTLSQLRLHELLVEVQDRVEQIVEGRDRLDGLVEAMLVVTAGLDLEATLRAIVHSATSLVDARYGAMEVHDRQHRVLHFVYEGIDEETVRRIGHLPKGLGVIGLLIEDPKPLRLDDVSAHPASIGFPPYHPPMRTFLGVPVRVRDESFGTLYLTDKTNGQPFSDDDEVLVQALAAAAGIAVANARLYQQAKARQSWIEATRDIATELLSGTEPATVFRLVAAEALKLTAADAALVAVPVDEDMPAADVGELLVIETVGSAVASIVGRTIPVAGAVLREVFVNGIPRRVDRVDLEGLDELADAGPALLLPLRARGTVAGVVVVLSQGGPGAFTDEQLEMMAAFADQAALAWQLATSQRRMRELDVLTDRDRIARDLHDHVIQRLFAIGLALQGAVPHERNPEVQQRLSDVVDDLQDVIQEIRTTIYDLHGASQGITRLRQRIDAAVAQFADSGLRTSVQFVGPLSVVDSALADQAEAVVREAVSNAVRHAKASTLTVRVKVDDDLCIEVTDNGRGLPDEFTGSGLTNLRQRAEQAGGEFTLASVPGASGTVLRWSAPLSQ
Chain of UniProt P18825 (whole entry, looked up): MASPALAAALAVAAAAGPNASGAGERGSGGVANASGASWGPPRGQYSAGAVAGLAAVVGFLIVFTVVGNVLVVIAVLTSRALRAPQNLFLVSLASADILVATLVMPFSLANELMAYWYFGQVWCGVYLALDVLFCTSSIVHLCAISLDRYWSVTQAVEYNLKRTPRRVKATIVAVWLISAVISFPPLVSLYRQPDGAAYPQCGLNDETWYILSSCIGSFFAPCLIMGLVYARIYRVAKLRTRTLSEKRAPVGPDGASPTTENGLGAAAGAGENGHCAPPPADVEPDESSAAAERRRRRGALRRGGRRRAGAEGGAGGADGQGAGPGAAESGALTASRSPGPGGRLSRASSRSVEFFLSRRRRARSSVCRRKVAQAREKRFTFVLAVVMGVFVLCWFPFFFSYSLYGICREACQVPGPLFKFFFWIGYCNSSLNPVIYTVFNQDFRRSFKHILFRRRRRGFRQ

NCCc1ccc(Oc2ccc(O)cc2)c(I)c1
IC50 (Sodium-dependent dopamine transporter (Slc6a3, Mus musculus, UniProt Q61327); dopamine uptake, inhibitor; TAAR1 knock-out mice, striatal synaptosomes; with: [3H]dopamine 10 nM): 1.2 ± 0.4 µM

C=C1C[C@@H]2[C@H](CC[C@]3(C)C(=O)CC[C@@H]23)[C@@]2(C)C=CC(=O)C=C12
IC50 (PGR; inhibitor): 29.3 µM

CCCCCc1cc(O)c2c(c1)OC(C)(C)c1ccc(C)cc1-2
IC50 (rat intestinal maltase; inhibitor; rat intestinal acetone powder; 10 min, 37 °C, with: maltose 10 mM): 350 ± 50 µM

COc1cc(C=C2C(=O)NC(=S)N(c3cccc(Cl)c3)C2=O)cc(Br)c1O
IC50 (AMC9; enzyme activity, inhibitor; pH 5.5, with: VRPR-AMC 50 µM): 25 µM

Clc1cc(Cl)cc(N2CCNCC2)c1
EC50 (Muscarinic acetylcholine receptor M4 (CHRM4, Homo sapiens, UniProt P08173); ERK1/2 phosphorylation, agonist; CHO cells): > 20000 nM

O=c1[nH]c2nc(-c3ccccc3)sc2c(=O)n1O
Ki (ilvC; inhibitor; 30 min preincubation, with: NADPH): 50 ± 5 nM

CCCN(CCc1ccsc1)C1CCc2c(O)cccc2C1 (stereo not shown)
IC50 (BCHE; inhibitor, fluorometric): 6.95 ± 2.68 µM

CCC(=O)O[C@H]1CC[C@H]2[C@@H]3CCC4=CC(=O)CC[C@]4(C)[C@H]3CC[C@]12C
IC50 (PGR; inhibitor): 0.328 µM

C[C@H]1CN(c2n[nH]c3nc(N[C@H]4CC[C@H](NS(=O)(=O)CCC(F)(F)F)CC4)ncc23)CCO1
relative abundance (Mitogen-activated protein kinase 11 (MAPK11, Homo sapiens, UniProt Q15759); competitor, Kinobeads competition; HEK293, K562, placenta extract; 0.16 µM; baseline: vehicle): 0.65

O=c1[nH]c2sc(-c3cccnc3)nc2c(=O)n1O
Ki (ilvC; inhibitor; 30 min preincubation, with: NADPH): 18300 ± 2300 nM

COc1ccc2c(c1)[C@]13CCCC[C@@H]1[C@H](C2)N(C)CC3
IC50 (Alpha-2C adrenergic receptor (ADRA2C, Homo sapiens, UniProt P18825); inhibitor): 10.6 µM

O=C1NC(=S)N(c2ccccc2)C(=O)C1=Cc1ccc(O)cc1
IC50 (AMC9; enzyme activity, inhibitor; pH 5.5, with: VRPR-AMC 50 µM): 31 µM

C[C@@H](C1=C(CCN(C)C)Cc2ccccc21)c1ccccn1
IC50 (BCHE; inhibitor, fluorometric): 1.09 ± 0.4 µM

CO[C@H]1[C@H](O[C@H]([C@H]2O[C@@H](n3ccc(=O)[nH]c3=O)[C@H](O)[C@@H]2O)[C@H](NCCCNC(=O)[C@@H](NC(=O)[C@@H](NC(=O)N[C@H](C(=O)O)C(C)C)[C@@H]2CCN=C(N)N2)[C@@H](OC(=O)CCCCCCCCCCCCN(O)C(=N)N)C(C)C)C(=O)O)O[C@H](CN)[C@H]1O
IC50 (MurX, Mycolicibacterium smegmatis; enzyme activity, inhibitor; P-60 membrane fraction): 0.018 ± 0.035 µM

Cc1nc2[nH]c(=O)n(O)c(=O)c2s1
Ki (ilvC; inhibitor; 30 min preincubation, with: NADPH): 360 ± 50 nM

C[C@]1(O)CC[C@H]2[C@@H]3CCC4=CC(=O)CC[C@]4(C)[C@@]3(F)[C@@H](O)C[C@@]21C
EC50 (PGR; agonist): 74 nM

CCCc1nc2c(=O)n(O)c(=O)[nH]c2s1
Ki (ilvC; inhibitor; 30 min preincubation, with: NADPH): 11500 ± 1600 nM

O=C1NC(=S)N(c2ccccc2)C(=O)C1=Cc1ccc(-c2ccc(C(=O)O)c(Cl)c2)o1
IC50 (AMC9; enzyme activity, inhibitor; pH 5.5, with: VRPR-AMC 50 µM): 24 µM

CCc1nc2[nH]c(=O)n(O)c(=O)c2s1
Ki (ilvC; inhibitor; 30 min preincubation, with: NADPH): 370 ± 30 nM

O=C1NC(=S)N(c2cccc(Cl)c2)C(=O)C1=Cc1ccc2c(c1)OCO2
IC50 (AMC9; enzyme activity, inhibitor; pH 5.5, with: VRPR-AMC 50 µM): 86 µM

Nc1ncnc2c1ncn2[C@@H]1O[C@H](COP(=O)(O)OP(=O)(O)NP(=O)(O)O)[C@@H](O)[C@H]1O
Kd (Oxygen sensor histidine kinase response regulator DevS/DosS, CA domain (devS, Mycobacterium tuberculosis, UniProt P9WGK3)): 53 ± 13 µM

CCCc1cc(O)c2c(c1)OC(C)(C)[C@@H]1CCC(C)=C[C@@H]21
EC50 (Transient receptor potential cation channel subfamily V member 3 (TRPV3, Homo sapiens, UniProt Q8NET8, S444L); calcium uptake, agonist; HEK293S; mutant S444L, site 2): 3890 ± 580 nM

CC(C)c1nc2[nH]c(=O)n(O)c(=O)c2s1
Ki (ilvC; inhibitor; 30 min preincubation, with: NADPH): 1060 ± 140 nM

COc1cc(Nc2ncc(F)c(Nc3ccc4c(n3)NC(=O)C(C)(C)O4)n2)cc(OC)c1OC
IC50 (Plasminogen (PLG, Homo sapiens, UniProt P00747)): > 10 µM

CCC(=O)[C@@]1(C)[C@H](C)C[C@H]2[C@@H]3CCC4=CC(=O)C=C[C@]4(C)[C@H]3[C@@H](O)C[C@@]21C
EC50 (PGR; agonist): 3 nM

CCCCCc1cc(O)c2c(c1)OC(C)(C)[C@@H]1CCC(C)=C[C@@H]21
EC50 (CatSper channel complex (Homo sapiens, UniProt Q7RTX7+Q86XQ3+Q8NEC5+Q96P56); intracellular Ca2+ increase, agonist, Fluo-4 fluorimetry; human sperm): 1030 ± 1200 nM

O=c1[nH]c2nc(-c3cccnc3)sc2c(=O)n1O
Ki (ilvC; inhibitor; 30 min preincubation, with: NADPH): 190 ± 20 nM

COC(=O)[C@@H](NC(=O)c1nn(Cc2ccc(F)cc2)c2ccccc12)C(C)(C)C
IC50 (Cannabinoid receptor 1 (CNR1, Homo sapiens, UniProt P21554); radioligand displacement; without NaCl, with: [3H]SR141716): 0.0213 µM

A few entries again:
CCc1nc2[nH]c(=O)n(O)c(=O)c2s1
Ki (ilvC; inhibitor; 30 min preincubation, with: NADPH): 370 ± 30 nM

O=C1NC(=S)N(c2cccc(Cl)c2)C(=O)C1=Cc1ccc2c(c1)OCO2
IC50 (AMC9; enzyme activity, inhibitor; pH 5.5, with: VRPR-AMC 50 µM): 86 µM

Nc1ncnc2c1ncn2[C@@H]1O[C@H](COP(=O)(O)OP(=O)(O)NP(=O)(O)O)[C@@H](O)[C@H]1O
Kd (Oxygen sensor histidine kinase response regulator DevS/DosS, CA domain (devS, Mycobacterium tuberculosis, UniProt P9WGK3)): 53 ± 13 µM

CCCc1cc(O)c2c(c1)OC(C)(C)[C@@H]1CCC(C)=C[C@@H]21
EC50 (Transient receptor potential cation channel subfamily V member 3 (TRPV3, Homo sapiens, UniProt Q8NET8, S444L); calcium uptake, agonist; HEK293S; mutant S444L, site 2): 3890 ± 580 nM
